Results pooled from the literature.
Parts stem from different laboratories: compare values within a part only. Substitutions count along the parent as printed.

Study 1
Target: RING finger protein unkempt homolog, zinc fingers 1-6, SBP tag (UNK, Homo sapiens, UniProt Q9C0B0, residues 30-357)
UniProt Q9C0B0, sequence (30-357, looked up): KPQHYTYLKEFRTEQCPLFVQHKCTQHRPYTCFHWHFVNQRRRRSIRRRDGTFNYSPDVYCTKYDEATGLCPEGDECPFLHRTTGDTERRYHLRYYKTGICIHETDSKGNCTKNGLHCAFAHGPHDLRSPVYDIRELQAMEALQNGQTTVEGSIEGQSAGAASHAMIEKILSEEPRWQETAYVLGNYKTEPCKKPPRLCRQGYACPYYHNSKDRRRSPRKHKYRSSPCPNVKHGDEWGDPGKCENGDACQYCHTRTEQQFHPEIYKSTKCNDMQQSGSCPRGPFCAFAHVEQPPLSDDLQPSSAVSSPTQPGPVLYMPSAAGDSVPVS
Method: RNA Bind-n-Seq
Molecule type: RNA
Medium: in vitro
Tested at: 100 nM
Notes: RNA with constant flanks, vertebrate orthologous sites, ends assumed
Reference: input RNA pool
Direction: higher = stronger binding
Measurement: bound/input enrichment
Shared flanks, not repeated: GGGAGUUCUACAGUCCGACGAUC … CAACAGAGGAUUGAGCAUCA
GUGGGGAUGAGGGUGGGAUGGGAAAGGGAUGUAUGGAUGUUAUUGGCAUUUUUAAGUGUUUAGAGUUUUUUGGGGUUUGGGGUGGUUUUUUCUCCUUGUUUUCCUUUUUUUCCUUUUAAU: 1.8 ratio
AGCAGCUCAAGGAUUCCGGACUGGUUUUACAAAUGUUCCAAACAGAUAUGGAACUAAUGCGAAAGGGCAACCCAGACCACAAUAAACUCCAUUUUUCAUUAUUUAUUGUACUGAAGGCUA: 0.425 ratio
CGGGGUGUACCUGUGGGGCGCUGCUGGCCACCGAGUGUCGUUUGAUUUGUGACCUUGACCUAAUAGAUAGGCUUGUGUUUUUGUUUUUUGGGUUUUUUUUUUAAUUUAAAAAUGUUAAGA: 0.593 ratio
CAACUCAAUGGUGGAGGGCUCUGAACUCAAGAAGGUUCGUUCAAACUCCAGAAUUUACCAUCGGUACUUUCUGCUGGACGCCGACAUGCAAAGCCUGAGGUGGGAGCCAUCCAAGAAGGA: 0.0909 ratio
AUAAUCACUCUAAUUGUAAUCUGAAUAAAGUGUAACAUUGUGUAGCCUUUUUGUAUAAAAUAGACAAAUAGAAAAUGGUCCAAUUAGUUUCCUUUUUAAUAUGCUUAAAAUAAGCAGGUG: 0.775 ratio
UACAUCUGGUGAUAUUUGGCCUGGUCUUUCAGCGUAUGAUAAUAGUCCUAGAUCUCCGCACAGUCCUUCACCUAUUGCUACACCACCUAGUCAGAGUUCAUCAUGCUCUGAUGCUCCUAU: 0.54 ratio
AGAAAAUUUUAAUCAGGAAUCAGAAGGUAGAAGUACAGGACCGUGGUUAUCUUCCUCACUUAGAAAUAGAUGCACACCUUUGUUCUCUAGAAGGAGGCGAGAGGGAAGAGAUGAAUCUUC: 1.3 ratio
CUCUACGGGCCUCGCAGAGUGGAGAUAAUGGAAGAGGAAAGUGAACAGUAAUCUUCAUUUUAGUAUUUAUGCUUAGGUGUGAAAUAAAUGUUAUUUGUUGAUCAUAUCUAUAACCCAGAG: 0.751 ratio
GAAAAUGGCUUCUGCUCCAUUAAAAAGUAAACAUUGUCCUCCAAAUAUAAAACUCCUUAAUAGAUAUUUUUGAAAUUAAAAUCUUUAAAUUUUAUAAAUCAGUUGUUGCCACUACACAAC: 3.98 ratio
GCAUCACAGAUUACUCUUGUUUCUGUAGCAGAUAGAAAAUUUUGCAACUAAUGUAUACAUCUCAUUGAGCUGAAUAUAUUUUUUAUUAGCCUGUAAAUAAAUAUACUCUUCUUCAUUGCA: 0.783 ratio
GGGACGUUUCGAUGUAAAAAUUGAAAUUAAGAGCUGAUCACAAGCACAAAUCUUCCCCACUAGCCAUUGAAUAAGUUAAAAAGAUACAAAAACCUACUAGUCUUGAAAAAAAAAAAAAAA: 1.66 ratio

Study 2
Target: Interferon regulatory factor 5, full length, phosphomimetic (IRF5, Homo sapiens, UniProt Q13568-2, residues 1-514, K96S/S451D/S453D/S456D/S462D)
Method: protein-binding microarray
Molecule type: double-stranded DNA, one strand shown
Medium: in vitro
Tested at: 250 nM
Notes: 60-bp whole probe
Added: salmon DNA 0.4 mg/ml
Reference: random background probes
Direction: higher = stronger binding
Measurement: log fluorescence
Shared flanks, not repeated: GCCTAGCAC … GTCTTGATTCGCTTGACGCTGCTG
GCTCTCTTCTGCTTCCTCAGGTGCTAG: 0.279 z-score
GACGATATCAGTACCGAGACGTGCTAG: 0.958 z-score
TCACATTCTGAATTCGAACTGTGCTAG: 0.619 z-score
TCAAATATATATATTGTACTGTGCTAG: 0.709 z-score
TGAGGTTTCGGGTTTCGGTTAGTGCTA: 9.25 z-score
GAAGGACTGGACACTGGGGACGTGCTA: -0.566 z-score
TCAAATTCCAAGTTCATACTGTGCTAG: 0.533 z-score
ACGCATGTGGGTTCCATCATGTGCTAG: -0.36 z-score
CCACTGCAAAAACATCCTGGGTGCTAG: 0.105 z-score
TCTTCCTTTACTTTCTTTTTGTGCTAG: 3.11 z-score
TTAGAACTGTGTTTCGATTAGTGCTAG: 7.2 z-score
GACGGTCTCGGATTGGGGACGTGCTAG: -0.283 z-score
GACGGTATCGGTTTCGGGCCGTGCTAG: 8.58 z-score
GACGGTATCGACTTTCGGGCCGTGCTA: 6.09 z-score
TCAATTTTTTTTCTAACACTGTGCTAG: 0.889 z-score
TTAGGTTTCGGGTATCGGTTGGTGCTA: 9.29 z-score
TTAGGTTTCCTTATCCTTGAGTGCTAG: 0.828 z-score
AACGGTTTCCTTATCCTGACGTGCTAG: 0.991 z-score
GACGGTTCCCTTTTGCTGACGTGCTAG: 0.373 z-score
TTAGGTACCGGTATCGGTTAGTGCTAG: 4.68 z-score
TCAACTTTCTTTACTTCACTGTGCTAG: 2.1 z-score
GACGGTCTCCTACAGCTGACGTGCTAG: -0.313 z-score

Study 3
Molecule: PhoQ, residues 284 288 289 292 302 303 DDMDFR
Method: Sort-seq
Measured: YFP reporter
Medium: E. coli
Notes: PhoQ-PhoP variant library
Added: 10 µM Mg2+
Reference: high Mg2+ state
Direction: higher = stronger signaling
Measurement: fold induction
PhoP, residues 12 14 15 18 19 LHTVL (Escherichia coli, UniProt P23836): 0.747
PhoP, residues 12 14 15 18 19 NQCAL (Escherichia coli, UniProt P23836): 0.68
PhoP, residues 12 14 15 18 19 TQAML (Escherichia coli, UniProt P23836): 0.715

Study 4
Target: Centromere-binding protein 1, full length, N-terminal tag (CBF1, Saccharomyces cerevisiae, UniProt P17106, residues 1-351)
UniProt P17106, sequence (whole entry, looked up): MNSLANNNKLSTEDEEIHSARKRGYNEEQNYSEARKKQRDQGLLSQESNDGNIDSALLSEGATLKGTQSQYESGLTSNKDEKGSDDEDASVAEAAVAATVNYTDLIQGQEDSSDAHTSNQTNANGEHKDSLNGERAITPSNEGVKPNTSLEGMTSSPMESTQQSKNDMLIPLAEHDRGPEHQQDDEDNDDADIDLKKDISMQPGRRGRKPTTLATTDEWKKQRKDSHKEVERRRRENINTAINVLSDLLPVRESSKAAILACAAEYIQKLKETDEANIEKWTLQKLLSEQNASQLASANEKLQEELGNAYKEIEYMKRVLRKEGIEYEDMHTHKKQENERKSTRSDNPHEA
Method: protein-binding microarray
Molecule type: double-stranded DNA, one strand shown
Medium: in vitro
Tested at: 0.8 µM
Notes: whole 60-bp probe, no competitor
Direction: higher = stronger binding
Measurement: fluorescence intensity
Shared flanks, not repeated: … GTCTTGATTCGCTTGACGCTGCTG
CTATACTACCGGTCAGCTGTGGTTCTGTGTCTGTTC: 589 a.u.
GAACGAGTTCGTGATTACATCAGGCATATACAATAG: 625 a.u.
GAATAACAGGCGTGTCACCAATGATTAATGGCGTAG: 563 a.u.
CTAGAAAGCATTCTTCACGCCATATTATGATCATTC: 539 a.u.
CTAAACCTTCCCTAACACATGAAACTATTATTGTTC: 567 a.u.
CCTAACTACTATACCAACACGCAATAGCTTCGTACA: 518 a.u.
CTAAGAATAGACATCCTGGTGACGCATATCGACTTC: 534 a.u.
CTATTCGTCCGACGTGATCTGGAAAATACGCGCTTC: 1010 a.u.
CTATTTACTCTGTAATAGCTGACGATTCTTCAGTTC: 498 a.u.
GAATGCATTCACTGCCATGTGCAAATAAAGGCTTAG: 852 a.u.
GAAACACCGGGTTCTGATGTTATCACCTACTTTTAG: 500 a.u.
GAATCTGGATACACCCTCGTGAAGAAATAGGGTTAG: 640 a.u.
CTAATTTCTATTTACCGGGTGATGGCGGCGCGCTTC: 511 a.u.
GAAATCTTCCGATGGCGCGTGCGTCTATTGTAGTAG: 605 a.u.
CTAGAATCCGAGAATCACATGAGGTTTGGGATATTC: 705 a.u.
GAAAACCGTCCAATATTCGTGATTGATCTTCGATAG: 566 a.u.
CTATGAATTCTTATACATGTGACTAACCGATATTTC: 4180 a.u.
GAATTAGCTTCTTTTCGGGTGATGTCACTTAAATAG: 544 a.u.
GAAACAAGAAGATAACATCAGAATGGCTTATCGTAG: 481 a.u.

Study 5
Target: CCNB2, cyclin fold, Cln2 fusion (human)
Method: yeast growth competition, sequencing
Medium: yeast
Notes: weak parent motif
Reference: not given
Direction: higher = stronger binding
Measurement: normalised enrichment score
Parent: CCP110 docking peptide (human); EKVKRRLDLDIDG; partner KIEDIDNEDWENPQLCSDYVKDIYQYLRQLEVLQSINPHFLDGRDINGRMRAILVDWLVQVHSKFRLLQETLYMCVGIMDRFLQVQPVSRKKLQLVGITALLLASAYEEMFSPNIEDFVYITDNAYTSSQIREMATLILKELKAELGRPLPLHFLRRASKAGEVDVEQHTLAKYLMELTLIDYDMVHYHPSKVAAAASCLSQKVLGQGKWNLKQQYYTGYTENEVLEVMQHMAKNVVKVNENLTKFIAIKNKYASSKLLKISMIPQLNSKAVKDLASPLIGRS
EKVKRRLDLDIAG [D12A]: 0.0093
EKVKARADLDIDG [R5A L7A]: -0.0299
EKVKRRLALDIDG [D8A]: 0.331
EKVKRALDLDIDG [R6A]: 0.101
EKVKRRLDADIDG [L9A]: -0.00655
AKVKRRLDLDIDG [E1A]: 0.476
EKVKARLDLDIDG [R5A]: -0.0702
EKVKRRLDFDIDG [L9F]: 3.37
EAVKRRLDLDIDG [K2A]: 0.59
EKVKKRLDFDIDG [R5K L9F]: 3.37

Excerpt of the above (study 4):
GAATTAGCTTCTTTTCGGGTGATGTCACTTAAATAG: 544 a.u.
GAAAACCGTCCAATATTCGTGATTGATCTTCGATAG: 566 a.u.
GAATCTGGATACACCCTCGTGAAGAAATAGGGTTAG: 640 a.u.
GAAACAAGAAGATAACATCAGAATGGCTTATCGTAG: 481 a.u.
CTAGAATCCGAGAATCACATGAGGTTTGGGATATTC: 705 a.u.
